Measured values collected from several papers.
Protocols differ between the studies behind these lines.
Cell line: T47D

C#CCOc1ccc(/C=N\NC(=O)c2ccncc2)cc1 — IC50 (cell growth or viability, MTT; 48 h): 347 µM
CCCCn1cc(C(=O)O)c(=O)c2cc(F)c(Nc3ccc(OC)cc3)c(N)c21 — IC50 (cell growth or viability, SRB; 72 h): 2.69 µg/mL
COc1ccc(C2=NN(C3=NC(=O)C(=Cc4ccc(O)cc4)S3)C(c3ccc(F)cc3)C2)cc1 (centres unmarked) — IC50 (cell growth or viability, MTT): 0.88 µM
CCCCn1c(-c2cccnc2)nc(-c2ccc(C)cc2)c1-c1ccc(C)cc1 — IC50 (cell growth or viability, SRB; 24 h): 83.2 µM
Cc1cc(C=O)cc(C)c1Oc1cc(Nc2ccc(C#N)cc2)nc2cnccc12 — IC50 (48 h): > 127 µM
COc1ccc(/C=C2\SC(N3N=C(c4ccc(OC)cc4)CC3c3ccc(F)cc3)=NC2=O)cc1 (centres unmarked) — IC50 (cell growth or viability, MTT): 14.4 µM
Cc1cc(C)c(C[n+]2cn(C3CCCC3)c3ccccc32)c(C)c1 — IC50 (cell growth or viability, MTT; 48 h): 24 µM
c1ccc(-c2nc(-c3cccnc3)[nH]c2-c2ccccc2)cc1 — IC50 (cell growth or viability, SRB; 48 h): > 100 µM
CN(C)c1ccc(/C=C2\SC(N3N=C(c4cccs4)CC3c3ccc(F)cc3)=NC2=O)cc1 (centres unmarked) — IC50 (cell growth or viability, MTT): 29.1 µM
CC(C)(C)c1ccc(C[n+]2cn(C3CCCC3)c3ccccc32)cc1 — IC50 (cell growth or viability, MTT; 48 h): 30 µM
Cc1cc(C#N)cc(C)c1Oc1cc(Nc2ccc(C#N)cn2)nc2ccncc12 — IC50 (48 h): > 127 µM
Cc1ccc(C(C)C)cc1.Oc1ccccc1C=NNC1=Nc2ccccc2-c2[nH]c3ccc(Br)cc3c2C1.[Cl-].[Cl][Ru+] — IC50 (cell growth or viability, MTT; 96 h): 0.8 µM
CCCCCCCCCCCCCCn1c(-c2cccnc2)nc(-c2ccc(C)cc2)c1-c1ccc(C)cc1 — IC50 (cell growth or viability, SRB; 24 h): > 100 µM
Cc1ccc(C2=NN(C3=NC(=O)C(=Cc4ccc(O)cc4)S3)C(c3ccc(F)cc3)C2)cc1 (centres unmarked) — IC50 (cell growth or viability, MTT): 0.75 µM
CCCCCCCCC=CCCCCCCCCn1c(-c2cccnc2)nc(-c2ccc(C)cc2)c1-c1ccc(C)cc1 — IC50 (cell growth or viability, SRB; 48 h): > 100 µM
O=C1N=C(N2N=C(c3cccs3)CC2c2ccc(F)cc2)SC1=Cc1ccc(O)cc1 (centres unmarked) — IC50 (cell growth or viability, MTT): 1.15 µM
CCCCCC(C)n1c(-c2cccnc2)nc(-c2ccc(C)cc2)c1-c1ccc(C)cc1 (centres unmarked) — IC50 (cell growth or viability, SRB; 24 h): 44.1 µM
Cc1cc(C#N)cc(C)c1Oc1cc(Nc2ccc(C#N)cc2)nc2cnccc12 — IC50 (48 h): > 128 µM
COc1ccc(C2=NN(C3=NC(=O)/C(=C/c4ccc(Cl)cc4)S3)C(c3ccc(F)cc3)C2)cc1 (centres unmarked) — IC50 (cell growth or viability, MTT): 55.1 µM
CCCCCCCCn1c(-c2cccnc2)nc(-c2ccc(C)cc2)c1-c1ccc(C)cc1 — IC50 (cell growth or viability, SRB; 24 h): 48.8 µM
